Measured values of several laboratories.
Lines come from different studies, so protocols differ. “And” joins repeats or separate records; there may be more than shown. ± gives the spread as reported.

By UniProt entry, the sequences of proteins in these tests, tags left out. Residues count along the entry.
UniProt P10959, 19-549 limits assumed: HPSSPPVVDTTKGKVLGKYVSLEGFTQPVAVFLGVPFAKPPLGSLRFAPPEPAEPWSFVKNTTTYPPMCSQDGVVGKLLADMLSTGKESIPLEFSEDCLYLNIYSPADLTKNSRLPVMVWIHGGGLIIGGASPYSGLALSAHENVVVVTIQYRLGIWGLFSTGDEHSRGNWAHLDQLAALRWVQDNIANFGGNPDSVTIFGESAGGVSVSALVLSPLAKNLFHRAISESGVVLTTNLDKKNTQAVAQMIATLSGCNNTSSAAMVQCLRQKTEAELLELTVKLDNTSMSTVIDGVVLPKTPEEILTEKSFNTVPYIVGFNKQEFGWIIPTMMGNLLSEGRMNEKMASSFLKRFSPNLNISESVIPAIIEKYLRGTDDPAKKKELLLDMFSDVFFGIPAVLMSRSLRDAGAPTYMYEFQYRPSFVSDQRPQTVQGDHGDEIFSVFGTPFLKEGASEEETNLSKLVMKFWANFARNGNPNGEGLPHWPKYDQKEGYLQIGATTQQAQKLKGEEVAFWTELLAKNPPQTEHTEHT

CCN(CC)Cc1onc(-c2cccc(Cl)c2)c1-c1ccnc(N[C@@H]2CCN(C(=O)c3ccn(C)n3)C2)n1  activity class (Plasmodium falciparum; parasite growth; 3D7 A10; concentration not given, asexual blood stage): active
O=C(NC1CCN(c2ncnc3[nH]cnc23)CC1)c1cccc(NS(=O)(=O)c2ccc([N+](=O)[O-])cc2)c1  relative infection (SARS-CoV-2; Wuhan-Hu-1; 0.09145 µM; reference: untreated infected cells): 74.9%
CC(C)[C@H]1CC[C@@H](N2CCC3(CC2)C(=O)NCN3c2ccccc2)CC1  selectivity ratio (twitch contraction; NOP(+/+) and NOP(-/-) mice, mouse vas deferens; reference: NOP(+/+) over NOP(-/-)): 3
CC[C@H](C)[C@H](NC(=O)[C@H](C)NC(=O)[C@H](CCC(=O)O)NC(=O)[C@H](CCC(=O)O)NC(=O)[C@H](CC(C)C)NC(=O)[C@H](CCCCN)NC(=O)[C@H](CCCCN)NC(=O)[C@H](CCSC)NC(=O)[C@H](CCC(=O)O)NC(=O)[C@H](Cc1ccc(O)cc1)NC(=O)[C@H](CCC(=O)O)NC(=O)[C@H](CC(C)C)NC(=O)[C@H](CC(=O)O)NC(=O)[C@H](CC(C)C)NC(=O)[C@H](Cc1ccccc1)NC(=O)[C@H](Cc1ccc(O)cc1)NC(=O)[C@@H](NC(=O)[C@H](CC(N)=O)NC(=O)[C@@H](NC(=O)[C@H](CCC(N)=O)NC(=O)[C@H](CC(=O)O)NC(=O)[C@H](CC(C)C)NC(=O)[C@@H](N)CO)[C@@H](C)CC)C(C)C)C(=O)N[C@@H](CCCCN)C(=O)N[C@@H](CCCCN)C(=O)N[C@@H](CC(C)C)C(=O)N[C@@H](CCC(=O)O)C(=O)N[C@@H](CCC(=O)O)C(=O)N[C@H](C(=O)N[C@@H](Cc1ccc(O)cc1)C(=O)N[C@H](C(=O)N[C@@H](CC(=O)O)C(=O)N[C@@H](CC(C)C)C(=O)N[C@@H](CCCCN)C(=O)N[C@@H](CCC(=O)O)C(=O)N[C@@H](CC(C)C)C(=O)O)[C@@H](C)CC)[C@@H](C)O  IC50 (SARS-CoV-2 Alpha pseudovirus; pseudovirus infection, inhibitor, luciferase; Caco-2; 24 h, dual mutations): 617 nM
O=C(CSc1ccccc1)N1CCCC2(C1)Nc1cccnc1N=C2NC1CCCC1 (stereo not drawn)  CC50 (HEK293; cell viability, CellTiter-Glo; 72 h): > 70000 nM
Cc1ccc(S(=O)(=O)Nc2cccc(C(=O)NC3CCN(c4ncnc5[nH]cnc45)CC3)c2)cc1  inhibition (monkeypox virus E1/E12; 0.04883 µM): 24.2% and 15.2%
CC[C@H](C)[C@H](NC(=O)[C@H](C)NC(=O)[C@H](CCC(=O)O)NC(=O)[C@H](CCC(=O)O)NC(=O)[C@H](CC(C)C)NC(=O)[C@H](CCCCN)NC(=O)[C@H](CCCCN)NC(=O)[C@H](CCSC)NC(=O)[C@H](CCC(=O)O)NC(=O)[C@H](Cc1ccc(O)cc1)NC(=O)[C@H](CCC(=O)O)NC(=O)[C@H](CC(C)C)NC(=O)[C@H](CC(=O)O)NC(=O)[C@H](CC(C)C)NC(=O)[C@H](Cc1ccccc1)NC(=O)[C@H](Cc1ccccc1)NC(=O)[C@@H](NC(=O)[C@H](CC(N)=O)NC(=O)[C@@H](NC(=O)[C@H](CCC(N)=O)NC(=O)[C@H](CC(=O)O)NC(=O)[C@H](CC(C)C)NC(=O)[C@@H](N)CO)[C@@H](C)CC)C(C)C)C(=O)N[C@@H](CCCCN)C(=O)N[C@@H](CCCCN)C(=O)N[C@@H](CC(C)C)C(=O)N[C@@H](CCC(=O)O)C(=O)N[C@@H](CCC(=O)O)C(=O)N[C@@H](CO)C(=O)N[C@@H](Cc1ccc(O)cc1)C(=O)N[C@H](C(=O)N[C@@H](CC(=O)O)C(=O)N[C@@H](CC(C)C)C(=O)N[C@@H](CCCCN)C(=O)N[C@@H](CCC(=O)O)C(=O)N[C@@H](CC(C)C)C(=O)O)[C@@H](C)CC  IC50 (SARS-CoV-2 EG.5.1 pseudovirus; pseudovirus infection, inhibitor, luciferase; Caco-2; 24 h): 196 nM
Cc1cc(C(=O)N[C@@H](Cc2cccc3ccccc23)C(=O)N[C@@H](CC(C)C)C(=O)N[C@H](C=O)C[C@@H]2CCCNC2=O)no1  EC50 (human rhinovirus 16; cytopathic effect, SRB; MRC-5; 3 days): 200 ± 200 nM
COc1cccc(CNC(=O)N2CCCC3(C2)Nc2cccnc2N=C3NC2CCCC2)c1 (stereo not drawn)  CC50 (HEK293; cell viability, CellTiter-Glo; 72 h): > 70000 nM
O=C(NC1CCN(c2ncnc3[nH]cnc23)CC1)c1cccc(NS(=O)(=O)c2ccc(Cl)cc2)c1  relative infection (SARS-CoV-2; Wuhan-Hu-1; 0.09145 µM; reference: untreated infected cells): 71%
CCOP(=O)(OCC)ON1C(=O)c2cccc3cccc(c23)C1=O  IC50 (Carboxylesterase 1C (Ces1c, Rattus norvegicus, UniProt P10959); enzyme activity, inhibitor; rat, postnatal day 12, rat serum; together with: p-nitrophenyl valerate): 1.1 nM
COc1ccc(OCC2c3cc(OC(C)C)ccc3CCN2C(=O)c2cccc(Cl)c2)cc1 (racemic)  NMDA current (NMDA receptor; patch clamp; cultured hippocampal neurons; 10 µM, together with: 100 µM NMDA and 3 µM glycine; reference: no compound): 200 ± 10%
O=C(NC1CCN(c2ncnc3[nH]cnc23)CC1)c1cccc(S(=O)(=O)Nc2ccc(Cl)cc2)c1  relative infection (SARS-CoV-2; Wuhan-Hu-1; 66.67 µM; reference: untreated infected cells): 29.2%
NCc1ccc(-c2ncc(OCC3CCNCC3)nc2-c2ccc(-c3ccoc3)cc2)cc1  survival time (Zika virus; ZIKV-FLR, C57BL/6 mice, interferon receptor knockout; 20 mg/kg/day, 3 days, mean survival): 13.7 days
CC[C@H](C)[C@H](NC(=O)[C@H](C)NC(=O)[C@H](CCC(=O)O)NC(=O)[C@H](CCC(=O)O)NC(=O)[C@H](CC(C)C)NC(=O)[C@H](CCCCN)NC(=O)[C@H](CCCCN)NC(=O)[C@H](CCSC)NC(=O)[C@H](CCC(=O)O)NC(=O)[C@H](Cc1ccc(O)cc1)NC(=O)[C@H](CCC(=O)O)NC(=O)[C@H](CC(C)C)NC(=O)[C@H](CC(=O)O)NC(=O)[C@H](CC(C)C)NC(=O)[C@H](Cc1ccccc1)NC(=O)[C@H](Cc1ccc(O)cc1)NC(=O)[C@@H](NC(=O)[C@H](CC(N)=O)NC(=O)[C@@H](NC(=O)[C@H](CCC(N)=O)NC(=O)[C@H](CC(=O)O)NC(=O)[C@H](CC(C)C)NC(=O)[C@@H](N)CO)[C@@H](C)CC)C(C)C)C(=O)N[C@@H](CCCCN)C(=O)N[C@@H](CCCCN)C(=O)N[C@@H](CC(C)C)C(=O)N[C@@H](CCC(=O)O)C(=O)N[C@@H](CCC(=O)O)C(=O)N[C@@H](C)C(=O)N[C@@H](Cc1ccc(O)cc1)C(=O)N[C@H](C(=O)N[C@@H](CC(=O)O)C(=O)N[C@@H](CC(C)C)C(=O)N[C@@H](CCCCN)C(=O)N[C@@H](CCC(=O)O)C(=O)N[C@@H](CC(C)C)C(=O)O)[C@@H](C)CC  IC50 (SARS-CoV-2 Gamma pseudovirus; pseudovirus infection, inhibitor, luciferase; Caco-2; 24 h, dual mutations): 1190 nM
COc1ccc(S(=O)(=O)Nc2cccc(C(=O)NC3CCN(c4ncnc5[nH]cnc45)CC3)c2)cc1  relative infection (SARS-CoV-2; Wuhan-Hu-1; 22.22 µM; reference: untreated infected cells): 32.4%
CC[C@H](C)[C@H](NC(=O)[C@H](C)NC(=O)[C@H](CCC(=O)O)NC(=O)[C@H](CCC(=O)O)NC(=O)[C@H](CC(C)C)NC(=O)[C@H](CCCCN)NC(=O)[C@H](CCCCN)NC(=O)[C@H](CCSC)NC(=O)[C@H](CCC(=O)O)NC(=O)[C@H](Cc1ccc(O)cc1)NC(=O)[C@H](CCC(=O)O)NC(=O)[C@H](CC(C)C)NC(=O)[C@H](CC(=O)O)NC(=O)[C@H](CC(C)C)NC(=O)[C@H](Cc1ccccc1)NC(=O)[C@H](Cc1ccccc1)NC(=O)[C@@H](NC(=O)[C@H](CC(N)=O)NC(=O)[C@@H](NC(=O)[C@H](CCC(N)=O)NC(=O)[C@H](CC(=O)O)NC(=O)[C@H](CC(C)C)NC(=O)[C@@H](N)CO)[C@@H](C)CC)C(C)C)C(=O)N[C@@H](CCCCN)C(=O)N[C@@H](CCCCN)C(=O)N[C@@H](CC(C)C)C(=O)N[C@@H](CCC(=O)O)C(=O)N[C@@H](CCC(=O)O)C(=O)N[C@@H](C)C(=O)N[C@@H](Cc1ccc(O)cc1)C(=O)N[C@H](C(=O)N[C@@H](CC(=O)O)C(=O)N[C@@H](CC(C)C)C(=O)N[C@@H](CCCCN)C(=O)N[C@@H](CCC(=O)O)C(=O)N[C@@H](CC(C)C)C(=O)O)[C@@H](C)CC  IC50 (SARS-CoV-2 Beta pseudovirus; pseudovirus infection, inhibitor, luciferase; Caco-2; 24 h, dual mutations): 379 nM
Nc1ccc([As]=O)cc1 (stereo not drawn)  IC50 (HCT-116; cell viability, MTS): 5030 ± 660 nM

Some of these lines once more:
Nc1ccc([As]=O)cc1 (stereo not drawn)  IC50 (HCT-116; cell viability, MTS): 5030 ± 660 nM
